# Measured values collected from several papers.
# Each line is one published result; not all experiments were run side by side. ± marks the error that the study gave.
# Cell line: HeLa
Structure (SMILES),assay,conditions,IC50
COC(=O)[C@@H]1CCCN1C(=O)[C@H](Cc1ccccc1)NC(=O)OC(C)(C)C,"cell growth or viability, SRB",,12 µM
COc1cccc2c(NCc3ccccc3)nc(Nc3cccc(Cl)c3)nc12,ODD-Luc degradation,p97-independent substrate,18 ± 4 µM
O=C(Cc1ccc(-c2ccc(OCCN3CCOCC3)cc2)cn1)NCc1ccccc1F,"cell growth or viability, CCK-8",48 h,0.26 µM
CCCCCCCCCCCCCCCCCCOc1c(O)cc(C(=O)O[C@@H]2Cc3c(O)cc(O)cc3O[C@@H]2c2cc(O)c(O)c(O)c2)cc1O,"cell growth or viability, CCK-8",24 h,60.6 µM
C#CCN(CC(=O)O[C@H]1[C@H](C)O[C@@H](O[C@H]2[C@H](N(C)C)[C@@H](O)[C@H](O[C@H]3[C@@H](CC=O)C[C@@H](C)[C@@H](O[C@H]4CC[C@H](N(C)C)[C@@H](C)O4)/C=C/C=C/C[C@@H](C)OC(=O)C[C@@H](O)[C@@H]3OC)O[C@@H]2C)C[C@@]1(C)O)C(=O)c1ccc(C(F)(F)F)cc1,"cell growth or viability, CCK-8",72 h,1.24 µM
COc1cccc(CNC[C@](O)(COCc2ccccc2)[C@@H]2CC[C@@H](C)C[C@H]2OCc2ccccc2)c1,"cell growth or viability, MTT",72 h,1.6 µM
CO[C@@H]1[C@@H](O[C@@H]2O[C@H](C)[C@@H](O[C@H]3C[C@@](C)(O)[C@@H](OC(=O)C4CCCCC4)[C@H](C)O3)[C@H](N(C)C)[C@H]2O)[C@@H](CC=O)C[C@@H](C)[C@@H](O[C@H]2CC[C@H](N(C)C)[C@@H](C)O2)/C=C/C=C/C[C@@H](C)OC(=O)C[C@H]1O,"cell growth or viability, CCK-8",72 h,8.5 µM
Cc1cc(C=O)cc(C)c1Oc1cc(Nc2ccc(C#N)cn2)nc2ccncc12,,48 h,> 126 µM
CN(C)CCCO/N=C1/C=C2CCC3C(CC[C@]4(C)/C(=C/c5ccccn5)CCC34)[C@@]2(C)CC1 (stereo partly drawn),"cell growth or viability, MTT",72 h,> 100 µM
O=c1[nH]c(=O)n([C@@H]2O[C@H](CSSc3ccccn3)[C@@H](O)[C@H](F)[C@H]2O)cc1F,cell growth or viability,,35 µM
CN1CCCNC(=O)CCC(=O)NCCCN(C)CCCNc2cccc3c2C(=O)c2cccc(c2C3=O)NCCC1,"cell growth or viability, CCK-8",48 h,> 20 µM
O=C1/C(=C(\O)CCc2ccccc2)C(=O)[C@@]2(C(=O)OCc3ccccc3)CS[C@H](c3ccccc3)N12,"cell growth or viability, resazurin",,31.3 µg/mL
COc1cc(CN2CCN(c3ccccc3[N+](=O)[O-])CC2)c2cc3[n+](cc2c1O)CCc1cc2c(cc1-3)OCO2,"cell growth or viability, SRB",48 h,5.97 µg/mL
Cc1cc(O)cc2c1O[C@](C)(CCC[C@H](C)CCC[C@H](C)CCCC(C)C)CC2,"cell growth or viability, MTT",,4.01 µM
CN(C)c1ccc(CNC(=O)Cc2ccc(-c3ccc(OCCN4CCOCC4)cc3)cn2)cc1,"cell growth or viability, CCK-8",48 h,0.48 µM
CC(C)(C)c1cc2c(O)c(c1)Cc1cc(C(C)(C)C)cc(c1OCC(=O)NCc1ccccn1)Cc1cc(C(C)(C)C)cc(c1O)Cc1cc(C(C)(C)C)cc(c1OCC(=O)NCc1ccccn1)COC2,"cell growth or viability, MTT",72 h,10.9 µM
CC(C)(C(=O)O)C1(O)CCCCC1,cell growth or viability,,129 µM
COc1ccccc1CNC[C@@](O)(COCc1ccccc1)[C@@H]1CC[C@@H](C)C[C@H]1OCc1ccccc1,"cell growth or viability, MTT",72 h,2.6 µM
O=C(Cc1ccc(-c2ccc(OCCN3CCOCC3)cc2)cn1)NCc1ccc(C(F)(F)F)cc1,"cell growth or viability, CCK-8",48 h,0.27 µM
CCCCCCCCCCCCCCCC(=O)O[C@H]1[C@H](C)O[C@@H](O[C@H]2[C@H](N(C)C)[C@@H](O)[C@H](O[C@H]3[C@@H](CC=O)C[C@@H](C)[C@@H](O[C@H]4CC[C@H](N(C)C)[C@@H](C)O4)/C=C/C=C/C[C@@H](C)OC(=O)C[C@@H](O)[C@@H]3OC)O[C@@H]2C)C[C@@]1(C)O,"cell growth or viability, CCK-8",72 h,8.81 µM
C[C@@H]1CC[C@@H]([C@@](O)(CNCc2cccc(F)c2)COCc2ccccc2)[C@H](OCc2ccccc2)C1,"cell growth or viability, MTT",72 h,2.3 µM
O=C(/C=C/c1ccc(-c2ccccc2)cc1)N[C@@H]1O[C@H](CO)[C@@H](O)[C@H](O)[C@H]1O,cell growth or viability,96 h,84 µM
[Cl][Pd-2]1([Cl])[N+](=Cc2ccc[nH]2)Cc2cccc[n+]21,"cell growth or viability, MTT",24 h,45.5 µg/mL
Cc1cc(C=O)cc(C)c1Oc1cc(Nc2ccc(C#N)cc2)nc2ccncc12,,48 h,31.6 ± 1.9 µM
CCCCC[P+](c1ccc(C)cc1)(c1ccc(C)cc1)c1ccc(C)cc1,"cell growth or viability, resazurin",72 h,0.45 µM
CC(C)c1ccc(C[C@H](C)C(=O)NC(=O)N[C@@H]2O[C@H](CO)[C@@H](O)[C@H](O)[C@H]2O)cc1,cell growth or viability,96 h,> 250 µM
CC(C)C[C@H](NC(=O)CNC(=O)c1cc(Cl)ccc1Cl)B(O)O,"cell growth or viability, resazurin",48 h,0.81 µM
C=C1C(=O)O[C@@H]2/C=C(\C)CC/C=C(/C(=O)OC)[C@H](OC(C)=O)[C@@H](OC(=O)/C(C)=C\C)[C@@H]12,cell growth or viability,24 h,9.38 µM
CC(C)c1ccc(/C=C/C(=O)NC(=O)N[C@@H]2O[C@H](CO)[C@@H](O)[C@H](O)[C@H]2O)cc1,cell growth or viability,96 h,45 µM
CC[P+](c1ccc(C)cc1)(c1ccc(C)cc1)c1ccc(C)cc1,"cell growth or viability, resazurin",72 h,3.83 µM
COc1ccc(CNC[C@@](O)(COCc2ccc(OC)cc2)[C@@H]2CC[C@@H](C)C[C@H]2OCc2ccc(OC)cc2)cc1,"cell growth or viability, MTT",72 h,3.5 µM
COc1cccc(CNc2nc(NCc3ccccc3)c3ccccc3n2)c1,ODD-Luc degradation,p97-independent substrate,> 20 µM
CCN(CC)CCO/N=C1/C=C2CCC3C(CC[C@]4(C)/C(=C/c5ccccn5)CCC34)[C@@]2(C)CC1 (stereo partly drawn),"cell growth or viability, MTT",72 h,> 100 µM
Cc1cc(N2CCN(C(=O)CN3CCCCC3)CC2)n2ncnc2n1,"cell growth or viability, MTT",,59.1 µM
COc1ccccc1/C=N/NC(=O)c1cc2cc(Nc3nccc(-c4cccnc4)n3)ccc2[nH]1,"cell growth or viability, MTT",48 h,9.75 µM
O=c1ccn([C@@H]2O[C@H](CSSC[C@H]3O[C@@H](n4ccc(=O)[nH]c4=O)[C@H](O)[C@@H](F)[C@@H]3O)[C@@H](O)[C@H](F)[C@H]2O)c(=O)[nH]1,cell growth or viability,,320 µM
N#Cc1c(-c2ccc(Cl)cc2)cc(-c2cccc3ccccc23)nc1Nc1ccc(Nc2nc(-c3cccc4ccccc34)cc(-c3ccc(Cl)cc3)c2C#N)cc1,"cell growth or viability, MTT",72 h,1.27 µM
NC(=O)c1cccnc1.O=c1[nH]cc(F)c(=O)[nH]1.O=c1[nH]cc(F)c(=O)[nH]1.O=c1[nH]cc(F)c(=O)[nH]1,"cell growth or viability, MTT",72 h,1.59 µM
O=[N+]([O-])c1ccc(C=[N+]2N=C(Nc3ccccc3)[S][Pd-]2([Cl])[Cl])s1,cell growth or viability,,21 µM
F[P-](F)(F)(F)(F)F.O=C(CCC(=O)c1ccccc1)NCCN(CC(=O)Nc1ccc(C#CCN(Cc2ccccn2)Cc2ccccn2)cc1)C(=O)CCc1cn(C[c-]2cccc2)nn1.[C-]#[O+].[C-]#[O+].[C-]#[O+].[Fe+2].[Re+].c1cc[cH-]c1,"cell viability, resazurin",48 h,13.5 ± 2.6 µg/mL
S=c1n(-c2ccccc2)c2c3ccccc3nc3[n+]2[n]1[Ir-3]12([S]3)([c]3ccccc3-c3cccc[n+]31)[c]1ccccc1-c1cccc[n+]12,"cell viability, MTT","irradiation 450 nm, 15.5 mW/cm^2, 15 min",0.015 ± 0.002 µM
CCC1=C(CC)C2=[N+]3C1=Cc1c(CC)c(CC)c4[n]1[Ir-3]31([Cl])([C]#[O+])[n]3c(c(CC)c(CC)c3=CC3=[N+]1C(=C4)C(CC)=C3CC)=C2,"cell growth or viability, MTT",72 h,> 50 µM
O=[N+]([O-])c1ccc(NC(=S)N/N=C/c2cccs2)cc1,cell growth or viability,,12 µM
CCCCCCCC(=O)O[C@H]1[C@H](C)O[C@@H](O[C@H]2[C@H](N(C)C)[C@@H](O)[C@H](O[C@H]3[C@@H](CC=O)C[C@@H](C)[C@@H](O[C@H]4CC[C@H](N(C)C)[C@@H](C)O4)/C=C/C=C/C[C@@H](C)OC(=O)C[C@@H](O)[C@@H]3OC)O[C@@H]2C)C[C@@]1(C)O,"cell growth or viability, CCK-8",72 h,7.13 µM
COc1cc(CN2CCN(c3ccc([N+](=O)[O-])cc3)CC2)c2cc3[n+](cc2c1O)CCc1cc2c(cc1-3)OCO2,"cell growth or viability, SRB",48 h,5.95 µg/mL
CN[C@H](CC(C)C)C(=O)N[C@H]1C(=O)N[C@@H](CC(N)=O)C(=O)N[C@H]2C(=O)N[C@H]3C(=O)N[C@H](C(=O)N[C@H](C(=O)O)c4cc(O)cc(O)c4-c4cc3ccc4O)[C@H](O)c3ccc(c(Cl)c3)Oc3cc2cc(c3O[C@@H]2O[C@H](CO)[C@@H](O)[C@H](O)[C@H]2O[C@H]2C[C@](C)(N)[C@H](O)[C@H](C)O2)Oc2ccc(cc2Cl)[C@H]1O,"cell viability, MTT",12 h,> 500 µM
Cc1cccc(CNC(=O)Cc2ccc(-c3ccc(OCCN4CCOCC4)cc3)cn2)c1,"cell growth or viability, CCK-8",48 h,0.97 µM
COc1ccc(-c2nnc(-c3ccccn3)[nH]2)cc1OC.COc1ccc(-c2nnc(-c3ccccn3)[nH]2)cc1OC.[Cu+2].[O-][Cl+3]([O-])([O-])[O-].[O-][Cl+3]([O-])([O-])[O-],"cell growth or viability, MTT",24 h,94.7 µM
Nc1ncnc2c1ncn2CC(=O)N[C@@H](Cc1ccccc1)C(=O)N[C@@H](Cc1ccccc1)C(=O)N[C@@H](Cc1ccc(O)cc1)C(=O)O,,,> 500 µM
c1ccc(Cc2nnnn2Cc2ccc(-c3ccc(OCCN4CCOCC4)cc3)cn2)cc1,"cell growth or viability, CCK-8",48 h,> 4 µM
COc1ccc(CS(=O)(=O)c2ccc3ccccc3c2)cc1NCC(=O)O,"cell growth or viability, MTS",48 h,0.112 µM
